Measurements collected from several papers.
Each line is one published result; not all experiments were run side by side. ± marks the error that the study gave.

| Compound | tested on | test | system | setting | how to read | endpoint | result |
| --- | --- | --- | --- | --- | --- | --- | --- |
| NC1(C(=O)N[C@@H](CCO)c2ccc(Cl)cc2)CCN(c2ncnc3[nH]ccc23)CC1 |  |  | human patients, plasma | 240 mg twice daily, day 8, continuous dosing |  | geometric mean Cmax | 666 ng/mL |
| C=CC(=O)Nc1cc(Nc2nccc(-c3cn(C4CC4)c4ccccc34)n2)c(OC)cc1N(C)CCN(C)C |  |  | BALB/c nude mouse, LU0387 xenograft, serum | oral, 40 mg/kg |  | ALT activity | 36.9 ± 4.51 U/L |
| CC(C)(C(=O)N1CCOc2c(C#N)cncc2C1)C(F)F |  | measured: conjunctival hyperaemia | human | oral, 20 mg once daily, 14 days, multiple ascending dose |  | subjects with adverse event | 0% |
| CCN1/C(=C/C(C)=O)Sc2ccc(F)cc21 |  |  | cynomolgus monkey | oral, 30 mg/kg, 4 h post-dose | baseline: pre-dose | diastolic blood pressure change | 99.4 ± 3.5% |
| Cc1ccc(Sc2ccccc2N2CCNCC2)c(C)c1 |  | measured: Headache | healthy adult men | oral, 10 mg daily, 12 days |  | participants with TEAE | 0% |
| C[C@H](CCC(=O)NCC(=O)O)[C@H]1CC[C@H]2[C@@H]3CC[C@@H]4C[C@H](OS(=O)(=O)O)CC[C@]4(C)[C@H]3C[C@H](O)[C@]12C |  |  | human, plasma | endogenous control diurnal | baseline: daily mean concentration | relative peak deviation | 88.1 ± 11.2% |
| COc1ncc(-c2nc3c(n2C(C)C)[C@H](c2ccc(Cl)cc2)N(c2cc(Cl)cn(C)c2=O)C3=O)c(OC)n1 |  |  | human patients, plasma | oral, 25 mg, cycle 1 day 1, low-dose |  | geometric mean Cmax | 235 ng/mL |
| O=C(CCCCCCC(=O)Nc1ccc(CC[18F])cc1)NO |  |  | athymic nu/nu male mice, LNCaP xenograft, lungs | intravenous, 2 h |  | tissue uptake | 1.6 ± 0.4 %ID/g |
| CCc1cc(C(=O)NC)c2nccc(N3CCc4c(cc(Cn5ccnc5)cc4-c4cn(C)nc4C(F)(F)F)C3=O)c2c1 |  |  | Sprague Dawley rat | oral, 100 mg/kg once daily, 7 days |  | spleen weight | 0.596 ± 0.078 g |
| CN1CC[C@@H](NC(=O)Nc2ccc(C#N)cc2)C[C@@H]1c1nc2ccccc2[nH]1 |  | linear mixed-effects model | healthy volunteers | oral, unit not given | baseline: placebo | ΔΔQTcF intercept | 1.79 |
| Cc1nc(-c2ccc(OCC(C)C)c(C#N)c2)sc1C(=O)O |  |  | human, plasma | oral, 40 mg, added: verinurad 5 mg | baseline: test over reference | geometric mean ratio AUC(0-24) | 93.2 |
| CNCc1ccc(-c2[nH]c3cc(F)cc4c3c2CCNC4=O)cc1 |  |  | patients | oral, 360 mg twice daily, all grades |  | abdominal distension incidence | 25% |
| CCO[C@H]1CCN(Cc2c(OC)cc(C)c3[nH]ccc23)[C@H](c2ccc(C(=O)O)cc2)C1 |  |  | healthy volunteers, plasma | oral, 200 mg single dose, median |  | unbound half-life | 12.9 h |
| C[C@H]1O[C@@H](O[C@H]2[C@@H](O)C[C@H](O[C@H]3[C@@H](O)C[C@H](O[C@H]4CC[C@@]5(C)[C@H](CC[C@@H]6[C@@H]5C[C@@H](O)[C@]5(C)[C@@H](C7=CC(=O)OC7)CC[C@]65O)C4)O[C@@H]3C)O[C@@H]2C)C[C@H](O)[C@@H]1O |  | measured: general and administration site disorders | healthy men | oral, dose not given, 8 days, treatment-emergent, crossover trial |  | subjects with adverse event | 0% |
| CCc1c(-c2ccccc2)c(-c2ccccc2)nn1-c1ccccc1-c1cccc(OCC(=O)O)c1 |  |  | female Sprague-Dawley rat, uterus | oral, 10 mg/kg, 8 h |  | concentration | 290 ng/g |
| COc1c(C)c2c(c(O[C@@H]3O[C@H](C(=O)O)[C@@H](O)[C@H](O)[C@H]3O)c1C/C=C(\C)CCC(=O)O)C(=O)OC2 |  |  | healthy subjects, plasma | oral, 1 g mycophenolate mofetil, added: isavuconazole |  | AUC(0-last), mean | 344 ng·h/mL |
| CCN1CCN(C(=O)N[C@@H](C(=O)N[C@@H]2C(=O)N3[C@@H]2SC(C)(C)[C@@H]3C(=O)O)c2ccccc2)C(=O)C1=O |  | LC-MS/MS | human patients, plasma | dose not given, therapeutic drug monitoring, median |  | total plasma concentration | 13 mg/L |
| N#Cc1cccc(-c2ccc3ncc(-c4cc(F)cc(F)c4)c(N4CCC(N)CC4)c3c2)c1O |  |  | human, male, urine and faeces | oral, 20 mg, 120 h, single dose, mean | baseline: dose | total radioactivity recovered | 88.1% |
| COCCOc1cnc2ccn([C@H](C)c3nnc4c(F)cc(-c5cnn(C)c5)cn34)c(=O)c2c1 |  |  | patients, plasma | oral, 200 mg once daily, day 1 |  | Cmax | 3520 ng/mL |
| COc1ccc2[nH]c([S+]([O-])Cc3ncc(C)c(OC)c3C)nc2c1 (stereo not drawn) |  |  | healthy Chinese volunteers, CYP2C19 poor metabolizers | oral, 20 mg, enteric-coated tablets |  | t1/2 | 2.24 ± 0.42 h |
| O=C(O)CCCCCCCCCCCCCCCCC(=O)O |  |  | human, plasma | endogenous control diurnal | baseline: daily mean concentration | relative peak deviation | 40.5 ± 8.6% |

| Compound | tested on | test | system | setting | how to read | endpoint | result |
| --- | --- | --- | --- | --- | --- | --- | --- |
| CC(C)n1c(Nc2cccnc2)nc2cnc(Nc3ccc(N4CCN(C)CC4)cc3)nc21 |  | measured: creatine phosphokinase increased | healthy male subjects | oral, 100 mg, study, added: itraconazole |  | subjects with adverse event | 7.1% |
| NCc1cc2c(cc1F)C(=O)N(C1CCC(=O)NC1=O)C2 (stereo not drawn) |  |  | male Beagle dog, whole blood | 3 h |  | remaining compound | < 1% |
| O=C(N[C@H](Cc1c[nH]c2ccccc12)C(=O)Nc1ccncc1)c1ccc(N2CCN(c3ccc(F)cc3F)CC2)cc1F |  |  | Swiss Webster mouse, female, heart | oral, 50 mg/kg, 8 h, 20% Kolliphor vehicle |  | concentration | 12.6 µM |
| Cc1cc(-c2nnc(N)nc2-c2ccc(F)cc2)cc(Cl)n1 |  | measured: Hyperthyroidism | IO-naive colorectal cancer patients | oral, dose not given, treatment-related, grade ≥3 |  | patients with immune-mediated AE | 0% |
| N#C[C@@]1(c2ccc3c(N)ncnn23)O[C@H](CO)[C@@H](O)[C@H]1O |  | plasma protein binding | rat plasma | 10 µM |  | unbound fraction | 0.918 |
| COc1ccc2c(c1)CN(C(=O)CCN1CCC(Cc3ccccc3)CC1)CC[S@@+]2[O-] |  | telemetry | conscious male beagle dogs | intravenous, 4 mg/kg, 0.5 h |  | QT interval | 214 ± 19 ms |
| C=CC(=O)NC1CCN(c2ncc3ncnc(Nc4ccc(Oc5ccc6c(c5)ncn6C)c(C)c4)c3n2)CC1 |  |  | human, male | oral, 240 mg, treatment-emergent adverse event |  | participants with grade 2 myalgia | 6.3% |
| Cc1nc2ncnn2c(O)c1NS(=O)(=O)c1ccc(Br)cc1 | CDK2 (Homo sapiens, UniProt P24941) | binding |  |  |  | Kd | > 100 µM |
| CNC(=O)c1ccc(-c2cnc3ncc(Cc4ccc5ncccc5c4)n3n2)cc1F |  | measured: Ascites, all grades | cancer patients | oral, 600 mg twice daily, other expansion cohort, any causality |  | patients with adverse event | 0% |
| CO[C@H]1C[C@@H]2CC[C@@H](C)[C@@](O)(O2)C(=O)C(=O)N2CCCC[C@H]2C(=O)O[C@H]([C@H](C)C[C@@H]2CC[C@@H](OC(=O)NCCOCCOCCOCCOCCOCCOCCOCCOCCC(=O)N3CCc4cc(Cn5nc(-c6ccc7oc(N)nc7c6)c6c(N)ncnc65)ccc4C3)[C@H](OC)C2)C[C@@H](O)[C@H](C)/C=C(\C)[C@@H](O)[C@@H](OC)C(=O)[C@H](C)C[C@H](C)/C=C/C=C/C=C/1C |  |  | human patients, plasma | intravenous, 1.6 mg, cycle 1 | baseline: day 15 over day 1 | AUClast ratio | 2.4 |
| C[C@H]1CN(C(=O)CC#N)[C@]12CCN(c1ncnc3[nH]ccc13)C2 |  |  | healthy human | oral, 6 mg single |  | subjects with Headache | 12.5% |
| CO[C@@H]1[C@H](OC(=O)N2CC(CCN3CCOCC3)C2)CC[C@]2(CO2)[C@H]1[C@@]1(C)O[C@@H]1CC=C(C)C |  |  | humans | subcutaneous, 0.6 mg twice weekly for 4 weeks, day 28 | baseline: baseline | D-dimer | -0.03 ± 0.08 mg/dL |
| Cl.[2H]C([2H])([2H])CC(=O)c1cnc(NC(=O)C2CC2)cc1Nc1cccc(-c2ncn(C([2H])([2H])[2H])n2)c1OC |  | geometric mean | human | oral, 40 mg twice daily, day 1, fed, liquid, multiple dose |  | AUC(0-tau) | 2090 ng·h/mL |
| Cc1cc(C)c(S(=O)(=O)N(C)CC(=O)N2CCC(C(N)=O)CC2)c(C)c1 | Cyclin-dependent kinase 2, with cyclin A (CDK2, Homo sapiens, UniProt P24941) |  |  |  |  | Kd | > 100 µM |
| CNC(=O)c1ccc(-c2cnc3ncc(Cc4ccc5ncccc5c4)n3n2)cc1F |  |  | Japanese patients | oral, 400 mg twice daily, grade 3/4 |  | ILD patients | 1% |
| Cc1c(-c2ccc(N3CCc4cccc(C(=O)Nc5nc6ccccc6s5)c4C3)nc2C(=O)O)cnn1CC12CC3(C)CC(C)(C1)CC(OCCNCC[C@H](O)CO)(C3)C2 |  |  | beagle dog, male, anaesthetised | intravenous infusion, 0.3 mg/kg/min, 120 min | baseline: vehicle | mean arterial pressure change | -36% |
| CC(C)[C@@H](CS(=O)(=O)C(C)C)N1C(=O)[C@@](C)(CC(=O)O)C[C@H](c2cccc(Cl)c2)[C@H]1c1ccc(Cl)cc1 |  |  | FVB Abcb1a/b-/-Abcg2-/- mice | oral, 20 mg/kg |  | oral bioavailability | 31% |
| N=C(N)NCCNC(=O)C1(Nc2ccccc2)CCN(Cc2ccccc2)CC1 |  |  | Sprague-Dawley rats, both sexes, plasma | oral, 50 mg/kg, mean of both sexes |  | mean residence time | 0.4 ± 0.1 h |
| Cc1ccc([C@@H]2O[C@H](CO)[C@@H](O)[C@H](O)[C@H]2O)cc1Cc1ccc(-c2ccc(F)cc2)s1 |  |  | Japanese type 2 diabetes patients | 400 mg, day 5, 24 h urine collection | baseline: baseline | urinary sodium excretion change | 2.65 mEq |
| O=C(O)CCC(=O)O.[2H]C([2H])([2H])Oc1cc(C)c2[nH]ccc2c1CN1CC[C@@H](C2CC2)C[C@H]1c1ccc(C(=O)O)cc1 |  |  | healthy Chinese subjects | 300 mg once daily, multiple ascending dose |  | TEAE elevated monocyte | 0% |
| CCN1CCN(Cc2ccc(NC(=O)c3ccc(C)c(NC(=O)c4cncc(-c5cccs5)c4)c3)cc2C(F)(F)F)CC1 |  |  | C57BL/6 mice, epithelial lining fluid | intraperitoneal, 30 mg/kg |  | dose-normalised AUC | 0.32 kg·µg·h/mL/mg |
